Experimental data of several laboratories.
Each numbered part is a random draw from the data of one study; scales do not carry over between parts. Substitutions count along the parent as printed.

Series 1
Target: Ras GTPase-activating protein-binding protein 1, full length (G3BP1, Homo sapiens, UniProt Q13283)
UniProt Q13283, sequence (whole entry, looked up): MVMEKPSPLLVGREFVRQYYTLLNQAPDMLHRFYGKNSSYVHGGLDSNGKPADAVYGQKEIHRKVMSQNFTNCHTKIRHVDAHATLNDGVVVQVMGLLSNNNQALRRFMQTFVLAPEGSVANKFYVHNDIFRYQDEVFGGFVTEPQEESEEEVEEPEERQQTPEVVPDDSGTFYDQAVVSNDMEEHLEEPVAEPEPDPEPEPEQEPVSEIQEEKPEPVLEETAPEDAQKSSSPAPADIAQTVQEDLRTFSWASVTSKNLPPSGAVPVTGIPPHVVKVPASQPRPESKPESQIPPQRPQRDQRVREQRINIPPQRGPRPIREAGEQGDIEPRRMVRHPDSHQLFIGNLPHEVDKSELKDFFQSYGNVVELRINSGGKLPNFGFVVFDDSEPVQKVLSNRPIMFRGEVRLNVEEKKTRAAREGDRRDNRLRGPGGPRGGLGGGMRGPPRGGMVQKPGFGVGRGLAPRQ
Method: RNA Bind-n-Seq
Form: RNA
Sample: in vitro
Tested at: 200 nM
Setting: whole 134-nt RNA, ends assumed
With: 150 mM KCl
Reference: input library
Reading: higher = stronger binding
Oligonucleotide	log2 enrichment
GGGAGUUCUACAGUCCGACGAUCUCCUGUGCUACACAUCGUAUGUACCGAAUCGGGGUUUUUUUGGGGAAAGGGGUUUGGGGAAAGUAUUAUGUUACGCCGUUCGGAUCUGCAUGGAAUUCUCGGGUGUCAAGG	0.563
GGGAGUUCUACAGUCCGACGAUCCACAGACAACACGCACCCACACAGACACAGAGAGAAGGGGUUGGGAUGGGGACAGGGUGCACAGCAGGGCGGGGUAGGACCCCAGCCCCUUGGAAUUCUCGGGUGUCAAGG	1.74
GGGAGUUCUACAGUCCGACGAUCUCAAGUCCUGUGCUACACAUCGUAUGUACCGAAUCGGAAAGGUUUUUUUGGUGGAAAGUAUUAUGUUACGCCGUUCGGAUCUGCACUUCCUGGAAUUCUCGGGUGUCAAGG	-1.03
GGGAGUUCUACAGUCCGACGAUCCUGUGCUACACAUCGUAUGUACCGAAUCGGGGAAAAAAAGGGGAAAAAAAGGAAAAAAAGGGAAAGUAUUAUGUUACGCCGUUCGGAUCUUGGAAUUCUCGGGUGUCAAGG	-0.604
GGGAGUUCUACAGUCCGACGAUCAGUCCUGUGCUACACAUCGUAUGUACCGAAUCGGGGAAAAAGGGGAGGGGAAAGGGGAAAGUAUUAUGUUACGCCGUUCGGAUCUGCACUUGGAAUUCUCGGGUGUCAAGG	0.23
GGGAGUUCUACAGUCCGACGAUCUCCUGUGCUACACAUCGUAUGUACCGAAUCAAAUUUUUUUAAAUUUAAAUUUUUUUAAAAAAGUAUUAUGUUACGCCGUUCGGAUCUGCAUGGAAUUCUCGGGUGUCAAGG	-0.652
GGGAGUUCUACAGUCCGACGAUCACCAUGCAGGUGGGCAUCUUUGGGAAGUGGGGCAAGGGGGGGAUAGGGAGGGGGGUAACACUUUGUGAACAGGUGGUCCCAGGUCGUUUCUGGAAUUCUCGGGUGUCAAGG	1.43
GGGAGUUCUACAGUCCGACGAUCUCCUGUGCUACACAUCGUAUGUACCGAAUCGGGCCCCCGGGGCCCCCGGGGCCCCCGGGGAAAGUAUUAUGUUACGCCGUUCGGAUCUGCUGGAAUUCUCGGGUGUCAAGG	-0.418
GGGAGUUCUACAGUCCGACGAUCCCUCAAGUCCUGUGCUACACAUCGUAUGUACCGAAUCGGAAAGGAGGUUUGGAAAGUAUUAUGUUACGCCGUUCGGAUCUGCACUUCCAGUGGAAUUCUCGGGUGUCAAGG	-0.296

Series 2
Target: CCNB2, cyclin fold, Cln2 fusion (human)
Method: yeast growth competition, sequencing
Sample: yeast
Setting: weak parent motif
Reference: not given
Reading: higher = stronger binding
Starting sequence: E2F3 docking peptide (human); PPAKRRLELGESG
Change	normalised enrichment score
R5A	0.402
E8A	-0.132
L9A	0.232
R5K	-0.048
G13A	0.0521
G10A	0.413
R6A	-0.0752

Series 3
Target: Centromere-binding protein 1, full length, N-terminal tag (CBF1, Saccharomyces cerevisiae, UniProt P17106, residues 1-351)
UniProt P17106, sequence (whole entry, looked up): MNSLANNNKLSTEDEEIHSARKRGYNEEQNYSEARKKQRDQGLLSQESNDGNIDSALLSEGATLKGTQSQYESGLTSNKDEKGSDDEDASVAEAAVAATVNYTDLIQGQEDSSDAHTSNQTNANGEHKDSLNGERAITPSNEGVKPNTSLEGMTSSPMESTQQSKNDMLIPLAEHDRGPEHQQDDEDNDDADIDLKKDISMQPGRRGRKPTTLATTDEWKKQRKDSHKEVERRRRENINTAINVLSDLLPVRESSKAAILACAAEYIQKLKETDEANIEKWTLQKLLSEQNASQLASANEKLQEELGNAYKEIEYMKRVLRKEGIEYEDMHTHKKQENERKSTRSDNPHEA
Method: protein-binding microarray
Form: double-stranded DNA, one strand shown
Sample: in vitro
Tested at: 0.8 µM
Setting: whole 60-bp probe, no competitor
Reading: higher = stronger binding
Oligonucleotide	fluorescence intensity
GAAAAAGGTAGTATTCACGTGTGGCTTCAAGAATAGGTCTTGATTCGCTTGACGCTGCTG	1660 a.u.
CTATTTTTAAATCGTGACATGTGCTTTAATAGATTCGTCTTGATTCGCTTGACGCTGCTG	2340 a.u.
CCTAACTACTATAATCAGATTTTATAGCTTCGTACAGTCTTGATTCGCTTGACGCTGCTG	536 a.u.
GAACTCCCCCTAAATCTCGTGATTAGAGTTTCATAGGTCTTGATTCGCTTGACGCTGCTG	1750 a.u.
CTATATTTCATCCACCACGTAAGAACGGTTTTCTTCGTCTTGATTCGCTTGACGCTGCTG	539 a.u.
GAACATTTTATACATGACGGCCTCTAGTAATATTAGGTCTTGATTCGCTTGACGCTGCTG	538 a.u.
CTATATCGAGTCTCCCACGAGGTTGACAAATAATTCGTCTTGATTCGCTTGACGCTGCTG	613 a.u.
GAACGAATGAGGTAGCATGTGAAAACGCGGGAGTAGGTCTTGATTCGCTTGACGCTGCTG	602 a.u.

Mixed results
Molecule	target	test	test system	setting	scale	quantity	result
PhoQ, residues 284 288 289 292 302 303 TAVSDG	PhoP, residues 12 14 15 18 19 LHATL (Escherichia coli, UniProt P23836)	Sort-seq, measured: YFP reporter	E. coli	PhoQ-PhoP variant library, with: 10 µM Mg2+	reference: high Mg2+ state, higher = stronger signaling	fold induction	0.955
